Experimental data pooled from the literature.
Parts stem from different laboratories: compare values within a part only. Changes are numbered by the printed parent chain.

Set 1 — target: CCNA2, cyclin fold, Cln2 fusion (human); method: yeast growth competition, sequencing; matrix: yeast; setting: strong parent motif; relative to: not given; reading: higher = stronger binding
Starting sequence: USP37 docking peptide (human); PSAKRSLGFLPQP
Under “normalised enrichment score”, `R5A` is recorded as 0.421.
`G8A`: “normalised enrichment score” 3.99.
`K4A` — result for “normalised enrichment score”: 0.901.
`P1A`: “normalised enrichment score” 1.37.
For `S2A`, “normalised enrichment score” read 1.8.
Under “normalised enrichment score”, `L7A` is recorded as 0.169.

Set 2 — target: CREB3L4, bZIP domain (human); method: DHFR protein complementation; matrix: yeast; relative to: wild-type JUN-FOS pair; reading: higher = stronger binding
Setting: single substitutions, most at no-binding floor
Starting sequence: JUN, bZIP domain (human); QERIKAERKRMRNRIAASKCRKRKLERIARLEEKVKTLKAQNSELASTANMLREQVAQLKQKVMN; partner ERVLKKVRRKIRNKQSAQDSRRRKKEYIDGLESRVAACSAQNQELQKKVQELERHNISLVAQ
With `E44K` the binding fitness was -1.53 natural log.
The binding fitness of `T48V` is reported as -1.48 natural log.
With `E44C` the binding fitness was -1.55 natural log.
The binding fitness of `A49G` is reported as -1.52 natural log.
`T37K` has a binding fitness of -1.45 natural log.
The binding fitness of `E44Y` is reported as -1.26 natural log.
The binding fitness of `M51S` is reported as -1.44 natural log.
For `K34G`, the binding fitness was -1.48 natural log.
`K39F` has a binding fitness of -1.47 natural log.
The binding fitness of `A57W` is reported as -1.46 natural log.
`T37D` has a binding fitness of -1.55 natural log.
For `L45Q`, the binding fitness was -1.51 natural log.
`L38F` has a binding fitness of -1.47 natural log.
With `R30L` the binding fitness was -1.43 natural log.
The binding fitness of `A46C` is reported as -1.44 natural log.
`A57R` has a binding fitness of -1.29 natural log.
The binding fitness of `L52C` is reported as -1.48 natural log.

Set 3 — method: DHFR PCA, deep sequencing; matrix: yeast; added: (+)-ABA 0.39 µM; relative to: wild-type fitted maximum; reading: higher = stronger binding
Target: ABI1, truncated, D143A, DHFR fusion (Arabidopsis thaliana)
Setting: methotrexate growth selection, single substitutions
Starting sequence: PYL1, truncated, DHFR fusion (Arabidopsis thaliana); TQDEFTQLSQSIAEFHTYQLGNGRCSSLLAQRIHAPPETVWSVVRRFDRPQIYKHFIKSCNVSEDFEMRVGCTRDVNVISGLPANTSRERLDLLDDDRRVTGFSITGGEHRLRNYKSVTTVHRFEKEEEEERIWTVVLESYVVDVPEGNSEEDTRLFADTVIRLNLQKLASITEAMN; partner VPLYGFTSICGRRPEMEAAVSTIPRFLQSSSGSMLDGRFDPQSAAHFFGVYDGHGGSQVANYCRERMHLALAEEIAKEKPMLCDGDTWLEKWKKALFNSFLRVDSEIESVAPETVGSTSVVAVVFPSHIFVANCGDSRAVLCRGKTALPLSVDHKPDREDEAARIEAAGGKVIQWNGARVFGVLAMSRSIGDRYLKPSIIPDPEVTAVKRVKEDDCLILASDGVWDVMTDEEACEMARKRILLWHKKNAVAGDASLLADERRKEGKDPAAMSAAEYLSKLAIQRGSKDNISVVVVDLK
`T120K` — result for “relative binding score”: -7.26%.
`Q10W`: “relative binding score” 10.7%.
`Y115K` — result for “relative binding score”: -3.24%.
Under “relative binding score”, `L20P` is recorded as 57.2%.
`E127S`: “relative binding score” 49.4%.
`A175V`: “relative binding score” 13.5%.
`T120L`: “relative binding score” -4.2%.
For `E139V`, “relative binding score” read 30.9%.
`D96R`: “relative binding score” -6.99%.
`A35V` — result for “relative binding score”: 1.7%.
Under “relative binding score”, `L28T` is recorded as 8.32%.
`R163N`: “relative binding score” -16.1%.
For `R123N`, “relative binding score” read 28.6%.
`V62L`: “relative binding score” 31.7%.
Under “relative binding score”, `G108K` is recorded as -9.39%.
`V100R`: “relative binding score” -0.946%.
Under “relative binding score”, `D65S` is recorded as 22.7%.
`Q19V` — result for “relative binding score”: 38.8%.

Set 4 — method: RNA Bind-n-Seq; molecule type: RNA; matrix: in vitro; tested at: 365 nM; relative to: no-protein control; reading: higher = stronger binding
Target: RNA binding protein fox-1 homolog 2, RRM domain, GST-SBP tag (RBFOX2, Homo sapiens, UniProt O43251-10, residues 100-194)
Setting: natural RNA segment, single round, ends assumed
Target sequence (chain): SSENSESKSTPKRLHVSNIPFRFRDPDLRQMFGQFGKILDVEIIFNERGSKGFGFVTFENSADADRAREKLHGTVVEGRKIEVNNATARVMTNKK
`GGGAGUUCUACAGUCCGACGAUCGUAGCUGGAGCCUCUGGGCUCCUCAGUCCCAUGCAACAUCCCUGGGACCUGGGGAAGGGAUGCUGAGACACAAGCAGGUCUUCUUAGCUCCAUGUUGGGAGAUGUUGGGGUGGAAUUCUCGGGUGCCAA`: “RBNS enrichment (R)” 0.52.
Under “RBNS enrichment (R)”, `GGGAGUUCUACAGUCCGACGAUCAGGGCUGCACACACAGGGCGGCUCUCUGUGCUGGUCCCUUCGUAGCUCCCCAGACCCGCUCUGUUCCGUUGCUGUUAGAACAGUAGACUACUGACCGCUAUAGAGCAGAUUGGAAUUCUCGGGUGCCAA` is recorded as 0.234.
`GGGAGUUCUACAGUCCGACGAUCUGUCUUUAUUUAAAAUGAUGAAUCUAGUCUGAAUCAGCUGUUAUUCCAAGCUAUCAUGCUUAAGCUAUGUCAACAGCAUUUAUUUGUACUAAUGCUAAUAUUUCCAUCAAUGGAAUUCUCGGGUGCCAA` — result for “RBNS enrichment (R)”: 0.593.
Under “RBNS enrichment (R)”, `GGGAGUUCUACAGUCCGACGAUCGCUACAAAUACCUUAAAAAUGAUAGAUUGAUGAUUUCCUUAAUUCCUAGAAUUUCUUUUAUAAAUGCUUUGUUUACAUUUUAGAUUGUAUCUGUCCUUAAUGUCAAAUGAUGGAAUUCUCGGGUGCCAA` is recorded as 0.613.
`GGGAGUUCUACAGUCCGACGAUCGCUGCUCGCUCUCGGCUGUAUGCACCUUCUAGACAGCAGAACGUCUGGUGGGAAGACAUGCCAGUGUUGGCCAUUGUCUCCCAUUCCAAAGAGAAUAACUUUGAACUGAGUGGAAUUCUCGGGUGCCAA` — result for “RBNS enrichment (R)”: 0.422.
For `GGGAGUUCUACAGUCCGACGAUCUAGAAAUUUAAUAUAAUCAGCCUUAACUAUGUUGUCUAACUCCUAAAGUACUUUGUUAUAAAGUCUUGAUUUCAUCAUAAUUUGUUACAUUUGUCUAUAUUUCCUACGGUUGGAAUUCUCGGGUGCCAA`, “RBNS enrichment (R)” read 0.776.
Under “RBNS enrichment (R)”, `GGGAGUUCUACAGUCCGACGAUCCUGGCUGAUGCUCAGAGGCCUCCUUAGAGAGGACACUCACUCCCCUCCCACCAGCUGGAUGCCCAUUUCUGAGCUCAGUCACUGAAGUGAGAGUGUGCUCCCCCAAGGGAUGGAAUUCUCGGGUGCCAA` is recorded as 0.291.
Under “RBNS enrichment (R)”, `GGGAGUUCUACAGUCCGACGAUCUCUCACAGUGGAGGGCAGACUCUAACAGAUGCCAGCUGAACGCUCGCUGGCCCUGGAUGUCAUACGAGUUGGGGACCAGAAAUCUGGGCUCAGAGAACCCGUCCAGGGAGUGGAAUUCUCGGGUGCCAA` is recorded as 1.96.
`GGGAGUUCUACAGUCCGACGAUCCUCUCCAUUUUGAUUAAAUAGUUCAUUGCAUUCUGAAGUUUGGGGAUGUUUUUUCUUUCCUUUUCUUUUCAAAUCCUUUAAUGAUAGGAAGACAAGUGAAACUGGGUGCAUGGAAUUCUCGGGUGCCAA`: “RBNS enrichment (R)” 2.18.
`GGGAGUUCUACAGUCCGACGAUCUGGGGCCCUGUGCCCAGGCCCUGGGCUGGUUGCAGCCCAGCAGUGCCUCCUGCCCCUCCUGGAGUUCAGCUCCUCCUCUGCCGUGGCCCGUGUCUGUCUGGCUCAUCCUUUGGAAUUCUCGGGUGCCAA` — result for “RBNS enrichment (R)”: 0.316.
For `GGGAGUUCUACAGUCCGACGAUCACUCGGAAUACCUCUGUUUUCCAUUUCAAAUUGUAGGGGGAGGGGAUGGAACACUUCCAGUGAUGGUAAGAGAUCUGUUAUGAAACGAAACACCCCCCGUGUUAAUAACUUGGAAUUCUCGGGUGCCAA`, “RBNS enrichment (R)” read 0.35.
`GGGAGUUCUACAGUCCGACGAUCAACACUAAUUGCUGGGCCUCAACCCAAAAGCCCCCAAAGUGGCACUUCUGAGUUCCUGCUGAUGUUACAAGGGACCACACUUUUGAGAAUCUGUGCUUUAAGCUAAGGAAUGGAAUUCUCGGGUGCCAA` — result for “RBNS enrichment (R)”: 0.281.

Set 5 — target: UBE2T UBC core domain (UniProt Q9NPD8); method: yeast two-hybrid; matrix: yeast; setting: mostly zero background; relative to: not given; reading: higher = stronger interaction
B1: RNF166 RING domain (UniProt Q96A37); chain GDSGLEAQYTCPICLEVYHRPVAIGSCGHTFCGECLQPCLQVPSPLCPLCRLPFDPKKVDK
B2: TRIM60 RING domain (UniProt Q495X7); chain ALVNLQEESSCPICLEYLKDPVTINCGHNFCRSCLSVSWKDLDDTFPCPVCRFCFPYKSFRR
B3: TRIM26 RING domain (UniProt Q12899); chain PLRSLEEEVTCSICLDYLRDPVTIDCGHVFCRSCTTDVRPISGSRPVCPLCKKPFKKENIRP
B4: TRIM54 RING domain (UniProt Q9BYV2); chain SMDNLEKQLICPICLEMFSKPVVILPCQHNLCRKCANDVFQASNPLWQSRGSTTVSSGGRFRCPSCRHEVVLDRHGV
B5: TRIM31 RING domain (UniProt Q9BZY9); chain FVNKLQEEVICPICLDILQKPVTIDCGHNFCLKCITQIGETSCGFFKCPLCKTSVRKNAIRF
B6: RNF183 RING domain (UniProt Q96D59); chain EQQGRELEAECPVCWNPFNNTFHTPKMLDCCHSFCVECLAHLSLVTPARRRLLCPLCRQPTVLASGQP
B7: RNF152 RING domain (UniProt Q8N8N0); chain ETLSQDSLLECQICFNYYSPRRRPKLLDCKHTCCSVCLQQMRTSQKDVRCPWCRGVTKLPPGFS
B8: RNF122 RING domain (UniProt Q9H9V4); chain AKKLQLYGQTCAVCLEDFKGKDELGVLPCQHAFHRKCLVKWLEVRCVCPMCNKPIASPSEAT
B9: MYCBP2 RING domain (UniProt O75592); chain TSLKQDADDMCMICFTEALSAAPAIQLDCSHIFHLQCCRRVLENRWLGPRITFGFISCPICKNKINHIVLKD
Target sequence (chain): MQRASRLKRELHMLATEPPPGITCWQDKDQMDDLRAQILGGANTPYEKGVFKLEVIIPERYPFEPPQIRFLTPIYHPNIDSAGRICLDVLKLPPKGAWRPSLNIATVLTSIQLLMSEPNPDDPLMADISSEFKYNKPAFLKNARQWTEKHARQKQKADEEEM
`KPDKMEETLTCIICQDLLHDCVSLQPCMHTFCAACYSGWMERSSLCPTCRCPVERICKNH (CHFR RING domain (UniProt Q96EP1))`: “lacZ reporter activity” 0.
Under “lacZ reporter activity”, `B1 (RNF166 RING domain)` is recorded as 0.
`MNDVLENELQCIICSEYFIEAVTLNCAHSFCSYCINEWMKRKIECPICRKDIKSKTYSL (RNF8 RING domain (UniProt O76064))` — result for “lacZ reporter activity”: 0.
For `QVQSRTKIEECVVCSDKKAAVLFQPCGHMCACENCANLMKKCVQCRAVVERRVPFI (MIB1 RING domain (UniProt Q86YT6))`, “lacZ reporter activity” read 0.
`B2 (TRIM60 RING domain)` — result for “lacZ reporter activity”: 0.
`LDAASGHPLVCPLCHGQYERPCLLDCFHDFCTGCLRGRATDGRLSCPLCQHQTLVKGPSG (Rnf207 RING domain (UniProt Q3V3A7))`: “lacZ reporter activity” 0.
For `B3 (TRIM26 RING domain)`, “lacZ reporter activity” read 0.
Under “lacZ reporter activity”, `B4 (TRIM54 RING domain)` is recorded as 0.
`B5 (TRIM31 RING domain)`: “lacZ reporter activity” 0.
`B6 (RNF183 RING domain)` — result for “lacZ reporter activity”: 0.
`B7 (RNF152 RING domain)`: “lacZ reporter activity” 0.
Under “lacZ reporter activity”, `B8 (RNF122 RING domain)` is recorded as 0.
`B9 (MYCBP2 RING domain)` — result for “lacZ reporter activity”: 0.

For quick reference, copied from above (set 1):
`K4A` — result for “normalised enrichment score”: 0.901.
Under “normalised enrichment score”, `L7A` is recorded as 0.169.
Under “normalised enrichment score”, `R5A` is recorded as 0.421.
`G8A`: “normalised enrichment score” 3.99.
`P1A`: “normalised enrichment score” 1.37.
For `S2A`, “normalised enrichment score” read 1.8.
